Measured values pooled from the literature.
Lines come from different studies, so protocols differ.
Target: Carbonic anhydrase 9 (CA9, Homo sapiens, UniProt Q16790)

The Ki of `COCCOc1cc2ncnc(Nc3cccc(-c4cn(Cc5ccc(C(=O)NCCc6ccc(S(N)(=O)=O)cc6)cc5)nn4)c3)c2cc1OCCOC` is reported as 425 nM (enzyme activity, inhibitor, stopped-flow).
For `NS(=O)(=O)c1ccc(N/N=C2\C(=O)N(CC(=O)Nc3ccccc3Cl)c3ccccc32)cc1`, the Ki was 673 nM (enzyme activity, inhibitor; with preincubation).
For `C[C@H]1OC(OC[C@@H]2OC(Oc3cc4oc(=O)ccc4cc3O)[C@@H](O)[C@H](O)[C@H]2O)[C@H](O)[C@@H](O)[C@@H]1O` (some centres unmarked), the Ki was 126 nM (enzyme activity, inhibitor).
With `COc1cc(-c2ccnc3nc(Nc4ccc(S(N)(=O)=O)cc4)nn23)cc(OC)c1OC` the Ki was 73.4 nM (enzyme activity, inhibitor, stopped-flow).
`COCCOc1cc2ncnc(Nc3cccc(-c4cn(Cc5ccc(S(N)(=O)=O)cc5)nn4)c3)c2cc1OCCOC` gave a Ki of 20 nM (enzyme activity, inhibitor, stopped-flow).
For `COc1cccc(/C=N/NC(=O)CSc2nc3ccccc3c(=O)n2CCc2ccc(S(N)(=O)=O)cc2)c1`, the Ki was 23.8 nM (enzyme activity, inhibitor, stopped-flow).
For `NS(=O)(=O)c1ccc(N/N=C2\C(=O)N(CC(=O)Nc3ccccc3Br)c3ccccc32)cc1`, the Ki was 401 nM.
`COCCOc1cc2ncnc(Nc3cccc(-c4cn(-c5cccc(S(N)(=O)=O)c5)nn4)c3)c2cc1OCCOC` has a Ki of 18.1 nM (enzyme activity, inhibitor, stopped-flow).
For `COc1ccccc1/C=N/NC(=O)CSc1nc2ccccc2c(=O)n1CCc1ccc(S(N)(=O)=O)cc1`, the Ki was 8.9 nM (enzyme activity, inhibitor, stopped-flow).
`COCCOc1cc2ncnc(Nc3cccc(-c4cn([C@H]5C[C@H](n6cc(C)c(=O)[nH]c6=O)O[C@@H]5CO)nn4)c3)c2cc1OCCOC` has a Ki of 1440 nM (enzyme activity, inhibitor, stopped-flow).
`CC(=O)Nc1ccc(S(=O)(=O)N2CCN(C(=O)c3cc4ccccc4oc3=O)CC2)cc1` gave a Ki of 6700 nM (enzyme activity, inhibitor, stopped-flow).
With `NS(=O)(=O)c1ccc(Nc2nc3nccc(-c4ccc5ccccc5c4)n3n2)cc1` the Ki was 57.7 nM (enzyme activity, inhibitor, stopped-flow).
`COc1ccc(NC(=O)CN2C(=O)/C(=N\Nc3ccc(S(N)(=O)=O)cc3)c3ccccc32)cc1` gave a Ki of 598 nM (enzyme activity, inhibitor; with preincubation).
With `COc1cccc(/C(C)=N/NC(=O)CSc2nc3ccccc3c(=O)n2CCc2ccc(S(N)(=O)=O)cc2)c1` the Ki was 54.6 nM (enzyme activity, inhibitor, stopped-flow).

For quick reference, copied from above:
`COCCOc1cc2ncnc(Nc3cccc(-c4cn(-c5cccc(S(N)(=O)=O)c5)nn4)c3)c2cc1OCCOC` has a Ki of 18.1 nM (enzyme activity, inhibitor, stopped-flow).
